Assay results of several laboratories.
Each line is one published result; not all experiments were run side by side. Values joined by “and” are separate records of one study, mostly repeats; a detail may differ. ± gives the spread as reported.

Structure (SMILES) | tested on | assay | system | setting | endpoint | result
CC[C@H](C)[C@H](NC(=O)[C@H](CCCCN)NC(=O)CNC(=O)[C@H](CC(C)C)NC(=O)[C@H](Cc1ccccc1)NC(=O)[C@H](CCCCN)NC(=O)[C@H](CO)NC(=O)[C@H](Cc1ccccc1)NC(=O)[C@H](Cc1c[nH]c2ccccc12)NC(=O)[C@H](CCC(N)=O)NC(=O)[C@@H](NC(=O)[C@H](Cc1ccccc1)NC(=O)CCCCCNC(=O)CN1CCN(CC(=O)O)CCN(CC(=O)O)CCN(CC(=O)O)CC1)C(C)C)C(=O)N[C@@H](CCC(=O)O)C(=O)N1CCC[C@H]1C(=O)N[C@@H](CC(=O)O)C(=O)N[C@H](C(=O)N[C@@H](CO)C(=O)N[C@@H](CCC(N)=O)C(=O)N[C@H](C(=O)N[C@@H](CCC(N)=O)C(=O)N[C@@H](CC(=O)O)C(=O)N1CCC[C@H]1C(=O)N[C@@H](CC(N)=O)C(=O)N[C@@H](CC(=O)O)C(=O)N[C@@H](CCC(N)=O)C(=O)N[C@@H](Cc1ccc(O)cc1)C(=O)N[C@@H](CCC(=O)O)C(=O)N1CCC[C@H]1C(=O)N[C@@H](Cc1ccccc1)C(=O)O)C(C)C)C(C)C [copper-64 labelled] | – | – | C57BL/6 mice, large intestine | vehicle, intratracheal instillation | tissue uptake | 4.13 ± 2.7 %ID/g
CN1Cc2cc(Cl)ccc2-n2c(nnc2C2CCN(c3cccc([18F])n3)CC2)C1 | – | PET two-tissue compartment model | rhesus monkey, hippocampus | intravenous, dose not given, 100 min scan, baseline scan | total volume of distribution | 1.13 ± 0.31 mL/cm3
Cc1nc2cccc(OCC(C)(C)C(=O)NC(C)C)c2c(N)c1C(=O)[O-].[Na+] | Salmonella typhimurium | – | TA1537 | 0.051 mg per plate, without S9, plate incorporation | revertant colonies per plate | 13 ± 3
COc1ccc(-n2cc(C(=O)N3C[C@]4(OC(=O)c5ccccc5NC(C)=O)CC[C@H](OC)[C@@]56[C@@H]4C[C@@H]([C@@H]35)[C@@]3(O)C[C@H](OC)[C@H]4C[C@@H]6[C@]3(O)[C@H]4OC)nn2)cc1 | – | – | Sprague-Dawley rat, plasma | intravenous, 2 mg/kg, 10 min | concentration | 52.7 ng/mL
Cc1ccc(NS(=O)(=O)c2c(C(=O)N3CCCCCC3)c(C)n(C)c2C)c(Cl)c1 | HaCaT | – | – | 0.015 µM, 60 h | viability | 100% and 93.6%
O=C1NC2(CC2)COc2ncc(F)cc2[C@H]2COCCN2c2ccn3ncc1c3n2 | – | – | Sprague-Dawley rat, male, spleen | oral, 2.5 mg/kg/day, 4 weeks, end of treatment | organ-to-brain weight ratio | 54.9 ± 11.9%
CN1CC[C@]23c4c5ccc(O)c4O[C@H]2[C@H](O)C=C[C@@]3(O)[C@H]1C5 | – | – | – | phenolate protonated | log k amino protonation | 9.07
CC(=O)NCCCC[C@@H]1NC(=O)[C@H](Cc2c[nH]c3c(C)cccc23)NC(=O)[C@H]([C@@H](C)O)NC(=O)[C@H](CC(N)=O)NC(=O)[C@@H](NC(C)=O)C(C)(C)SSC(C)(C)[C@@H](C(=O)N[C@@H](Cc2ccc(OCCN)cc2)C(=O)N[C@@H](Cc2ccc3ccccc3c2)C(=O)NC2(C(=O)N[C@@H](CCC(=O)O)C(=O)N[C@@H](CC(N)=O)C(=O)N[C@@H](Cc3cccnc3)C(=O)N(C)CC(N)=O)CCOCC2)NC1=O | human alpha-1-acid glycoprotein 0.07% | equilibrium dialysis | – | 1 µM | fraction unbound | 98.9 ± 0.5%

Excerpt of the above:
Structure (SMILES) | tested on | assay | system | setting | endpoint | result
CN1CC[C@]23c4c5ccc(O)c4O[C@H]2[C@H](O)C=C[C@@]3(O)[C@H]1C5 | – | – | – | phenolate protonated | log k amino protonation | 9.07
